Results from different studies.
Several values in a cell are separate wells, animals, samples, runs or records. ± marks the error that the study gave.
Sequence of UniProt P11712 (whole entry, looked up): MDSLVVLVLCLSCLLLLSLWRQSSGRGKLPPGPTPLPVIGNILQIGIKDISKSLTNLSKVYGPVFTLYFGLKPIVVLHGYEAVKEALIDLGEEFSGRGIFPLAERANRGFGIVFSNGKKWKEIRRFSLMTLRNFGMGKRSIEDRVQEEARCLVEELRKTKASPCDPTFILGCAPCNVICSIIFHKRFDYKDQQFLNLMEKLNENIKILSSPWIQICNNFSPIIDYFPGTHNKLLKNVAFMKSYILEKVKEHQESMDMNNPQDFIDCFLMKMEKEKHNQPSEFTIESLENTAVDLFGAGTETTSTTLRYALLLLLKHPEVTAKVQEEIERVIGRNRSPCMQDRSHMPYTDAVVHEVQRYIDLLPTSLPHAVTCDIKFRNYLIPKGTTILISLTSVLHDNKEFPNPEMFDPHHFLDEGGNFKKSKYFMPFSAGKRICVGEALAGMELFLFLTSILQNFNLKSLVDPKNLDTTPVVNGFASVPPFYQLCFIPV

For [123I]c1ccc2nc(-c3ccc(-n4ccnn4)nc3)cn2c1, the tissue uptake was 12.7 ± 0.886 %ID/g (male Wistar rat, small intestine; intravenous, 4 MBq, 1 h).
For CCCC[C@H](NC(=O)CNC(=O)CNC(=O)[C@H](CCCCNC(=O)[C@H](CC(=O)O)NC(=O)C(C)c1ccc(CC(C)C)cc1)NC(=O)CN1CCN(CC(=O)O)CCN(CC(=O)O)CCN(CC(=O)O)CC1)C(=O)N[C@H]1CC(=O)NCCCC[C@@H](C(N)=O)NC(=O)[C@H](Cc2c[nH]c3ccccc23)NC(=O)[C@H](CCCNC(=N)N)NC(=O)[C@@H](Cc2ccccc2)NC(=O)[C@H](Cc2c[nH]cn2)NC1=O (stereo partly shown) [lutetium-177 labelled], the tissue uptake was 0.68 ± 0.21 %ID/g (C57 mice, tumour-bearing, spleen; intravenous, 0.037 MBq, 4 h).
The tissue uptake of CC(C)Cc1ccc(C(C)C(=O)N[C@@H](CCCCNC(=O)CCOCCOCCOCCOCCOCCOCCNC(=O)CN2CCN(CC(=O)[O-])CCN(CC(=O)[O-])CCN(CC(=O)[O-])CC2)C(=O)Nc2cccc3c(C(=O)NCC(=O)N4CC(F)(F)C[C@H]4C#N)ccnc23)cc1.[177Lu+3] (stereo partly shown) is reported as 0.68 ± 0.25 %ID/g (mouse, U-87 MG tumour xenograft, spleen; 24 h).
CC(C)C[C@H](NC(=O)[C@@H](CCCCNC(=O)[C@@H](Cc1ccccc1)NC(=O)CCCCCCCNC(=O)CN1CCN(CC(=O)O)CCN(CC(=O)O)CCN(CC(=O)O)CC1)NC(=O)[C@H](Cc1ccc(O)cc1)NC(=O)[C@H](CO)NC(=O)[C@H](Cc1c[nH]c2ccccc12)NC(=O)[C@H](Cc1c[nH]cn1)NC(=O)[C@@H]1CCC(=O)N1)C(=O)N[C@@H](CCCNC(=N)N)C(=O)N1CCC[C@H]1C(=O)NCC(N)=O [indium-111 labelled] has a tissue uptake of 7.83 ± 1.07 %ID/g (male athymic nude mice, DU-145 prostate cancer xenograft, kidney; intravenous, 0.037 MBq, 2 h).
COc1cccc(OC)c1-c1cc(C(=O)NC2(C(=O)O)C3CC4CC(C3)CC2C4)nn1-c1ccc(C(=O)NCCNC(=O)[C@H](CCCCNC(=O)[C@H](CC(C)C)NC(=O)C2OC2C(=O)O)NC(=O)CN2CCN(CC(=O)[O-])CCN(CC(=O)[O-])CCN(CC(=O)[O-])CC2)cc1C(C)C.[177Lu+3] (mixture of isomers) gave a tissue uptake of 1.3 %ID/g (mouse, HT-29 xenograft, liver; 4 h post injection).
O=C1C2CC3CC1CC(C(=O)N1CCN(c4ccc([N+](=O)[O-])c5ncccc45)CC1)(C3)C2 — result for “revertant fold increase”: 1 (Salmonella typhimurium; Ames test; TA100; 0.05 µg/well, with S9; baseline: vehicle).
COc1cccc(OC)c1-c1cc(C(=O)NC2(C(=O)O)C3CC4CC(C3)CC2C4)nn1-c1ccc(C(=O)N(C)CCCN(C)C(=O)[C@H](CCCCNC(=O)[C@H](CC(C)C)NC(=O)C2OC2C(=O)O)NC(=O)CN2CCN(CC(=O)[O-])CCN(CC(=O)[O-])CCN(CC(=O)[O-])CC2)cc1C(C)C.[177Lu+3] (mixture of isomers) has a tissue uptake of 0.06 %ID/g (mouse, HT-29 xenograft, brain; 24 h post injection).
The tissue uptake of Cc1cc(C)n(CCN(CCN)CCCCCCNC(=O)[C@@H](N)Cc2c[nH]cn2)n1.[99Tc+].[C-]#[O+].[C-]#[O+].[C-]#[O+] is reported as 0.29 ± 0.06 %IA/g (BALB/c nude mice, A549 xenograft, heart; intravenous, 24 h).
For COc1cccc(OC)c1-c1cc(C(=O)NC2(C(=O)O)C3CC4CC(C3)CC2C4)nn1-c1ccc(C(=O)N(C)CCCN(C)CCCN(C)C(=O)[C@H](CCCCNC(=O)[C@H](CC(C)C)NC(=O)C2OC2C(=O)O)NC(=O)CN2CCN(CC(=O)[O-])CCN(CC(=O)[O-])CCN(CC(=O)[O-])CC2)cc1C(C)C.[177Lu+3] (mixture of isomers), the tissue uptake was 1.9 %ID/g (mouse HT-29 xenograft, small intestine; 4 h post injection, biodistribution).
N#C[C@@H]1CC(F)(F)CN1C(=O)CNC(=O)c1ccnc2c(NC(=O)[C@@H](N)CCCCNC(=O)CCOCCOCCOCCOCCOCCOCCNC(=O)CN3CCN(CC(=O)[O-])CCN(CC(=O)[O-])CCN(CC(=O)[O-])CC3)cccc12.[177Lu+3] gave a tissue uptake of 4.44 ± 0.53 %ID/g (mouse, U-87 MG tumour xenograft, kidneys; 4 h).
C=CC(=O)Nc1cccc(Cn2ncc3cnc(Nc4cnn(CCOC)c4)nc32)c1 — result for “percent of control”: 73% (TNK2 human; binding, KINOMEscan; 100 nM; lower = stronger binding).
The tissue uptake of CCCC[C@H](NC(=O)COCCOCCNC(=O)CN1CCN(CC(=O)O)CCN(CC(=O)O)CC1)C(=O)N[C@H]1CC(=O)NCCCC[C@@H](C(N)=O)NC(=O)[C@H](Cc2c[nH]c3ccccc23)NC(=O)[C@H](CCCNC(=N)N)NC(=O)[C@@H](Cc2ccccc2)NC(=O)[C@H](Cc2c[nH]cn2)NC1=O [fluorine-18 labelled] is reported as 2.28 ± 0.27 %ID/g (C57 mice B16-F10 melanoma, lung; intravenous, 0.37 MBq, 0.5 h).
The tissue uptake of COc1cccc(OC)c1-c1cc(C(=O)NC2(C(=O)O)C3CC4CC(C3)CC2C4)nn1-c1ccc(C(=O)N(C)CCOCCN(C)C(=O)[C@H](CCCCNC(=O)[C@H](CC(C)C)NC(=O)C2OC2C(=O)O)NC(=O)CN2CCN(CC(=O)[O-])CCN(CC(=O)[O-])CCN(CC(=O)[O-])CC2)cc1C(C)C.[177Lu+3] (mixture of isomers) is reported as 0.3 %ID/g (mouse, HT-29 xenograft, liver; 168 h post injection).
For [11CH3]N1CCC(NC(=O)c2cc(-c3c(O)cc(O)cc3Oc3ccc([N+](=O)[O-])cc3)on2)CC1, the tissue uptake was 5.2 ± 0.4 %ID (Wistar rat, female, healthy, kidneys; intravenous, 30 min).
N#C[C@@H]1CC(F)(F)CN1C(=O)CNC(=O)c1ccnc2c(NC(=O)CCOCCOCCOCCOCCOCCOCCNC(=O)[C@H](CCCCNC(=O)CN3CCN(CC(=O)[O-])CCN(CC(=O)[O-])CCN(CC(=O)[O-])CC3)NC(=O)CCCc3ccc(I)cc3)cccc12.[177Lu+3] has a tissue uptake of 0.12 ± 0.05 %ID/g (mouse, U-87 MG tumour xenograft, brain; 4 h).
Cc1ncsc1-c1ccc(C(C)NC(=O)C2CC(O)CN2C(=O)C(NC(=O)CCCCCCCCCCN2CCCC(Nc3ncc(Cl)c(Nc4ccccc4S(=O)(=O)C(C)C)n3)C2)C(C)(C)C)cc1 (stereo not shown) — result for “log2 fold change”: -1.01 (22Rv1; RNA-seq, refers to: YAE1 mRNA; concentration not given; baseline: DMSO).
For O=C(O)CCCOc1ccc([18F])cc1-c1cc(-c2ccccc2C(F)(F)F)n(-c2ccccc2)n1, the tissue uptake was 4.2 ± 0.79 %ID/g (mouse, small intestine; intravenous, dose not given, 360 min).
For CNC(=O)C1CCCN(C(=O)C2CC3CCC2N3C(=O)[C@@H]2C[C@@H](O)CN2C(=O)NCc2cccc(Cl)c2F)C1 (mixture of isomers), the remaining activity was 98.2% and 95.1% and 102% (Cytochrome P450 2C9 (CYP2C9, Homo sapiens, UniProt P11712); preincubation without NADPH; human; 0.206 µM; baseline: negative control).
Under “revertant fold increase”, CC(C)OCCOCc1ccc(OCC(O)CN(N=O)C(C)C)cc1 (stereo not shown) is recorded as 0.9 fold (Salmonella typhimurium; Ames test; TA1537; 1580 µg/plate, without metabolic activation; baseline: solvent control).
C=C(NC(=O)c1csc(-c2nc3c(cc2O)-c2nc(cs2)C(=O)NC(C(C)O)C(=O)NC(=C(C)OC)c2nc(cs2)C(=O)NC2c4nc(cs4)C(=O)NC(COC(=O)c4c5c6c(cccc6n4O)COC(=O)C(OC4CC(C)(O)C(N(C)C)C(C)O4)C2OC5)c2nc-3cs2)n1)C(N)=O (stereo not shown) has a half-life of 2.24 ± 0.42 h (Sprague-Dawley rat, both sexes, plasma; intravenous infusion, 2 mg/kg single dose).
COc1cccc(OC)c1-c1cc(C(=O)NC2(C(=O)O)C3CC4CC(C3)CC2C4)nn1-c1ccc(C(=O)N(C)CCOCCOCCN(C)C(=O)[C@H](CCCCNC(=O)[C@H](CC(C)C)NC(=O)C2OC2C(=O)O)NC(=O)CN2CCN(CC(=O)[O-])CCN(CC(=O)[O-])CCN(CC(=O)[O-])CC2)cc1C(C)C.[177Lu+3] (mixture of isomers) has a tissue uptake of 0.3 %ID/g (mouse, HT-29 xenograft, lung; 72 h post injection).
Under “log2 fold change”, COC1CN([C@H]2CC[C@H]([C@@]3(C)Oc4c(Cl)cc(C(=O)NCc5c(SC)cc(C)[nH]c5=O)c(C)c4O3)CC2)C1 is recorded as 0.766 (RNA-seq, refers to: UPP1 mouse homolog; mouse, HT-1376 xenograft, whole blood; dose not given; baseline: vehicle).
